{"data": "Published values of several laboratories", "note": "Numbered parts are unrelated; each lists some results of a single study. Positions count from the first letter of the parent shown."}
{"data": "Block 1", "target": "RNA binding protein fox-1 homolog 2, RRM domain, GST-SBP tag (RBFOX2, Homo sapiens, UniProt O43251-10, residues 100-194)", "method": "RNA Bind-n-Seq", "molecule type": "RNA", "sample": "in vitro", "concentration": "365 nM", "notes": "natural RNA segment, single round, ends assumed", "baseline": "no-protein control", "direction": "higher = stronger binding", "all sequences stand within": "GGGAGUUCUACAGUCCGACGAUC … UGGAAUUCUCGGGUGCCAA", "Residues (chain)": "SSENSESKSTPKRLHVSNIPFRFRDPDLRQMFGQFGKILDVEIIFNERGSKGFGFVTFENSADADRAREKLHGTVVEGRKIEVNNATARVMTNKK"}
{"Strand": "AAUUCUAAAAGCCCAAUUGAGAUGUUCAGGGAGGGUUUGUUUUGCCCUUUGGCCUCAUGAAUGGGUUUCAUGAAUGGGCUUCAGUGGCUUAUAAACUCUGUAAAAUUCUA", "RBNS enrichment (R)": 0.32}
{"Strand": "AGACUACAGGAGUUAACAGAUGGCCAGCUCCUUAUUUUUUAAUGUAGAAUAACUCCUGAGUUUAUAUCAAAUCCUGAAGAAAUAAGCCUCAGUUUUCCAUCUGUUUUUGA", "RBNS enrichment (R)": 0.686}
{"Strand": "UUUCCCUGUGUGGACCAUGGGGAUCAGAGUCUGGCCUGCCAGGCUCCUCUCCCCGUUUUCUCUUUUGGUGGGGGGGUGUGCUGUGGGUAUUCACCACCCUGGGACCCCCC", "RBNS enrichment (R)": 0.262}
{"Strand": "GCUUGGCAGAGGGGAAAGUAGAAAGGGUCUUUAUUGGCUAUAAGCUGUUUCUAAGUGCUGAGAGUUUUGCUUGAAGAGGGAGCGAGCCAUCAAGUUCCCAGCUUUUCAGG", "RBNS enrichment (R)": 0.664}
{"Strand": "UGAUCCUGGUAAUGCACUUUGGAUGGGAAGAAAAUGUACGUGCUUUUCAGAGGGGCUCUGAACAGAAUGAAAACCUAGUUCUUGCGUGUACUUUGAAGAAUGGAAUUGUA", "RBNS enrichment (R)": 3.78}
{"Strand": "CCCCUGCCCAAGCCCCAGCCUGACCCCAGUCCUUCCCUCUUGGACUCAGAGUUGGUGUGGCCUACCUGGCUAUACAUCUUCAUCCCUCCCCACCAUCCUGGGGAAGUGAU", "RBNS enrichment (R)": 0.458}
{"Strand": "GGUCCUUCAAAUGUUCCUUUGGCCAAAAGCUGAAGGGAGUUACUGAGAAAAUAGUUAACAAUUACUGUCAGGUGUCAUCACUGUUCAAAAGGUAAGCACAUUUAGAAUUU", "RBNS enrichment (R)": 0.305}
{"Strand": "GGCAUGGUGGCUGGAAGUAAAACUGCCAACUCUGGCCCUCAGAACUCUCAGGUAUAGAAGCCCAGGAUGUCUAAUACCCUGUCCCAGUGCCCGAGAGCUGCCUGGUGUCA", "RBNS enrichment (R)": 1.16}
{"Strand": "CUUCCUUGCGCAUUGUCAGCAUUUCUGAGUGAUUCACAGUGAUGUUUUAUGAUGGUUAGACUUCUGGACAUGGACUCAUCUUGUGAGAAGAUUUGAAUAAUGACCAAUUC", "RBNS enrichment (R)": 0.572}
{"Strand": "CCGAGAUUGCGCCAUUGCACUCCAGCCUGGGCAAAAAGAGUGAGACUCUGUCUCAAAAAAAAAACAAAACAAAAAAAACCUCUUUGCUGGUAUAUUUGAAGAGCUUGGGA", "RBNS enrichment (R)": 0.779}
{"Strand": "CUUUCCCUGUGUGGUCUGCCCUCCACCUCUGAGGCCAGCUCAUCAGAUCUGACCUGCCUGAGACAACCCAGGUAAUUUGGGGUUUGAUCAGAGGUCUAAUGGUAGCAAAC", "RBNS enrichment (R)": 0.251}
{"Strand": "UAGUCCAUUGGCAAGCUUUAUCAAUAGCUUAAUGGCAGAGGAUAAAGGCUCAAACAGAUGAUGUUUUUUCCACAGAAAAACAAAUUGUUGAAUCUAUUCCGUGCAUAUUU", "RBNS enrichment (R)": 0.422}
{"data": "Block 2", "target": "CCNA2, cyclin fold, Cln2 fusion (human)", "method": "yeast growth competition, sequencing", "sample": "yeast", "notes": "strong parent motif", "baseline": "not given", "direction": "higher = stronger binding", "parent": "INSM1 docking peptide (human); PKAIRKLHFEDEV"}
{"Variant": "H8D", "normalised enrichment score": 5.73}
{"Variant": "L7T", "normalised enrichment score": 0.22}
{"Variant": "R5T", "normalised enrichment score": 1.16}
{"Variant": "K6A", "normalised enrichment score": 4.27}
{"Variant": "F9K", "normalised enrichment score": 0.0792}
{"Variant": "R5W", "normalised enrichment score": 0.655}
{"Variant": "K2A", "normalised enrichment score": 4.26}
{"Variant": "H8L", "normalised enrichment score": 5.52}
{"Variant": "A3V", "normalised enrichment score": 5.53}
{"Variant": "I4F", "normalised enrichment score": 5.78}
{"Variant": "E10S", "normalised enrichment score": 5.1}
{"Variant": "F9H", "normalised enrichment score": 0.533}
{"Variant": "K6Q", "normalised enrichment score": 5.17}
{"Variant": "D11L", "normalised enrichment score": 4.6}
{"Variant": "H8G", "normalised enrichment score": 2.94}
{"Variant": "L7Y", "normalised enrichment score": 0.263}
{"Variant": "K2W", "normalised enrichment score": 3.6}
{"data": "Block 3", "target": "Ras GTPase-activating protein-binding protein 1, full length (G3BP1, Homo sapiens, UniProt Q13283)", "method": "RNA Bind-n-Seq", "molecule type": "RNA", "sample": "in vitro", "concentration": "200 nM", "notes": "whole 134-nt RNA, ends assumed", "together with": "150 mM LiCl", "baseline": "input library", "direction": "higher = stronger binding", "each molecule": "7-deaza-guanosine replaces G", "all sequences stand within": "GGGAGUUCUACAGUCCGACGAUC … UGGAAUUCUCGGGUGUCAAGG", "sequence of UniProt Q13283 (whole entry, looked up)": "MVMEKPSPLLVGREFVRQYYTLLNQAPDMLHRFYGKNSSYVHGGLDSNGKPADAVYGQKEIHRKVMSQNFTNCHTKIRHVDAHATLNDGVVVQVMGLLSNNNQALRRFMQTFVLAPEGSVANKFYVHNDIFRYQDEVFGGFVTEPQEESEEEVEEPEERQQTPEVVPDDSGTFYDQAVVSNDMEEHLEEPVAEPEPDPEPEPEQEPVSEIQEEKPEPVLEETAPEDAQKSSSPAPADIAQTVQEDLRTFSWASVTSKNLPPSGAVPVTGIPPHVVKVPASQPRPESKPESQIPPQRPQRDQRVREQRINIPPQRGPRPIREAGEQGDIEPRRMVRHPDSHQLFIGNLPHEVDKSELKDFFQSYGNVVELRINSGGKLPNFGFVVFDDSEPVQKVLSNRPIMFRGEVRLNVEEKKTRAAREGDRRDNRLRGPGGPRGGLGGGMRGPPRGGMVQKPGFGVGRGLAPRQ"}
{"Strand": "CACAGACAACACGCACCCACACAGACACAGAGGGAAGGGGUUGGGAUGGGGACAGGGUGCACAGCAGGGCGGGGUAGGACCCCAGCGCCU", "log2 enrichment": -1.57}
{"Strand": "GUCCUGUGCUACACAUCGUAUGUACCGAAUCGGGUUUGGGUUUUUUUGGGAAAAAGGGAAAGUAUUAUGUUACGCCGUUCGGAUCUGCAC", "log2 enrichment": -0.416}
{"Strand": "UCCUGUGCUACACAUCGUAUGUACCGAAUCGGAAAAAAGGGAAAAAAGGGAAAAAAGGGAAAGUAUUAUGUUACGCCGUUCGGAUCUGCA", "log2 enrichment": -0.262}
{"Strand": "CUCAAGUCCUGUGCUACACAUCGUAUGUACCGAAUCGGCCGGGGCCGGGCCGGGAAAGUAUUAUGUUACGCCGUUCGGAUCUGCACUUCC", "log2 enrichment": -0.112}
{"Strand": "CCUCAAGUCCUGUGCUACACAUCGUAUGUACCGAAUCGGGAGGGGAGGGAGGAAAGUAUUAUGUUACGCCGUUCGGAUCUGCACUUCCAG", "log2 enrichment": 0.355}
{"Strand": "CUCCUGGAGUGGAUCCGGCGCACCAUCCCCUGGCUGGAGGACCGUGUGCCCCAAAAGACUAUCCAGGAGAUGCAGCAGAAGCUGGAGGAC", "log2 enrichment": -2.69}
{"Strand": "UUCCUCAAGUCCUGUGCUACACAUCGUAUGUACCGAAUCGGUGGAGGUGGAAAGUAUUAUGUUACGCCGUUCGGAUCUGCACUUCCAGCA", "log2 enrichment": -0.848}
{"Strand": "CACAGACAACACGCACCCACACAGACACAGAGGGAAGGGGUUGGGAUGGGGACAGGGUGCACAGCAGGGCGGAAAAGGACCCCAGCCCCU", "log2 enrichment": 1.11}
{"Strand": "CUCAACGUUGACAGUAAUGAACAAGGCUCCUAUGUAGUGGCCAUGGAAACCUUUACCAACUUAGGACCCAUUGUCGAUAUGUGCGUGGUG", "log2 enrichment": -1.65}
{"Strand": "AGUCCUGUGCUACACAUCGUAUGUACCGAAUCGGGGAAAAGGAAAAGGGGAAAAGGGAAAGUAUUAUGUUACGCCGUUCGGAUCUGCACU", "log2 enrichment": -0.591}
{"Strand": "GCUGUGACCCCAACGCCGGUGCCCGUGGUCGGGAGCCAGAUGACCAGACAAGCCCGGCGCCUCUACGUGGGCAACAUCCCCUUUGGCAUC", "log2 enrichment": 0.661}
{"data": "Block 4", "target": "NFE2L2, bZIP domain (human)", "method": "DHFR protein complementation", "sample": "yeast", "notes": "single substitutions, most at no-binding floor", "baseline": "wild-type JUN-FOS pair", "direction": "higher = stronger binding", "parent": "JUN, bZIP domain (human); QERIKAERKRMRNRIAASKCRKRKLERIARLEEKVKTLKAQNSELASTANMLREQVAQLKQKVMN; partner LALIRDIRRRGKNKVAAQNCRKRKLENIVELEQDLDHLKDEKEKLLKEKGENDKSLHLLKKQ"}
{"Variant": "Q41M", "binding fitness [natural log]": -1.57}
{"Variant": "K39G", "binding fitness [natural log]": -1.46}
{"Variant": "R53H", "binding fitness [natural log]": -1.52}
{"Variant": "I28Q", "binding fitness [natural log]": -1.47}
{"Variant": "A40M", "binding fitness [natural log]": -1.48}
{"Variant": "K36M", "binding fitness [natural log]": -1.45}
{"Variant": "M51D", "binding fitness [natural log]": -1.38}
{"Variant": "K39S", "binding fitness [natural log]": -1.49}
{"Variant": "V35H", "binding fitness [natural log]": -1.21}
{"Variant": "A29I", "binding fitness [natural log]": -1.17}
{"Variant": "R53I", "binding fitness [natural log]": -1.57}
{"Variant": "A49W", "binding fitness [natural log]": -1.26}
{"Variant": "V35A", "binding fitness [natural log]": -1.27}
{"Variant": "Q41R", "binding fitness [natural log]": -1.52}
{"Variant": "A57S", "binding fitness [natural log]": -1.25}
{"Variant": "A40Q", "binding fitness [natural log]": -1.31}
{"Variant": "S43W", "binding fitness [natural log]": -1.43}
{"data": "Block 5", "target": "ABI1, truncated, D143A, DHFR fusion (Arabidopsis thaliana)", "method": "DHFR PCA, deep sequencing", "sample": "yeast", "notes": "methotrexate growth selection, single substitutions", "together with": "(+)-ABA 0.0091 µM", "baseline": "wild-type fitted maximum", "direction": "higher = stronger binding", "parent": "PYL1, truncated, DHFR fusion (Arabidopsis thaliana); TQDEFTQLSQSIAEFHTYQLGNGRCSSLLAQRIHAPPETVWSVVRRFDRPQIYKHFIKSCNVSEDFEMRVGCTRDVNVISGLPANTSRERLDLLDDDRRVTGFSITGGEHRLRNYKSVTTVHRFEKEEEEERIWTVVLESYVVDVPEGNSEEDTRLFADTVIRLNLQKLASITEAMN"}
{"Variant": "R123A", "relative binding score [%]": 55.2}
{"Variant": "T135C", "relative binding score [%]": 8.05}
{"Variant": "Q2D", "relative binding score [%]": 29}
{"Variant": "H110C", "relative binding score [%]": 28.5}
{"Variant": "Q19R", "relative binding score [%]": 28}
{"Variant": "S59E", "relative binding score [%]": 27.2}
{"Variant": "T135R", "relative binding score [%]": -4.67}
{"Variant": "V100Q", "relative binding score [%]": 0.501}
{"Variant": "G21M", "relative binding score [%]": 9.21}
{"Variant": "L82R", "relative binding score [%]": 9.8}
{"Variant": "A170D", "relative binding score [%]": 4.01}
{"Variant": "S171G", "relative binding score [%]": 7.63}
{"Variant": "T160A", "relative binding score [%]": 8.89}
{"Variant": "E38W", "relative binding score [%]": 2.78}
{"data": "Block 6", "target": "UBE2E2 UBC core domain (UniProt Q96LR5)", "method": "yeast two-hybrid", "sample": "yeast", "notes": "mostly zero background", "baseline": "not given", "direction": "higher = stronger interaction", "B1": "TRIM54 RING domain (UniProt Q9BYV2); chain SMDNLEKQLICPICLEMFSKPVVILPCQHNLCRKCANDVFQASNPLWQSRGSTTVSSGGRFRCPSCRHEVVLDRHGV", "B2": "RNF31 RING domain (UniProt Q96EP0); chain AFLRRLLAQECAVCGWALPHNRMQALTSCECTICPDCFRQHFTIALKEKHITDMVCPACGRPDLTDDTQLL", "sequence of UniProt Q96LR5 (whole entry, looked up)": "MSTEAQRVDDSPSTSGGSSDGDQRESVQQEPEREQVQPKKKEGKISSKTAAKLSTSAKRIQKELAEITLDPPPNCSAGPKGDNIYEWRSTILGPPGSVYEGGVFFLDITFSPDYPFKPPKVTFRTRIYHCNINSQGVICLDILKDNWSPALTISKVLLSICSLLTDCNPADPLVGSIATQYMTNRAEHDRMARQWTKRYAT"}
{"Molecule": "B1 (TRIM54 RING domain)", "lacZ reporter activity": 0}
{"Molecule": "AEADPLGRFTCPVCLEVYEKPVQVPCGHVFCSACLQECLKPKKPVCGVCRSALAPGVRAV (RNF114 RING domain (UniProt Q9Y508))", "lacZ reporter activity": 0}
{"Molecule": "B2 (RNF31 RING domain)", "lacZ reporter activity": 0}
{"Molecule": "YPEEVDDDLICHICLQALLDPLDTPCGHTYCTLCLTNFLVEKDFCPMDRKPLVLQHCKK (LNX1 RING domain (UniProt Q8TBB1))", "lacZ reporter activity": 0}
{"Molecule": "QVQSRTKIEECVVCSDKKAAVLFQPCGHMCACENCANLMKKCVQCRAVVERRVPFI (MIB1 RING domain (UniProt Q86YT6))", "lacZ reporter activity": 0}
{"note": "Some of these lines once more (block 5):"}
{"Variant": "H110C", "relative binding score [%]": 28.5}
{"Variant": "S171G", "relative binding score [%]": 7.63}
{"Variant": "E38W", "relative binding score [%]": 2.78}
{"Variant": "T135R", "relative binding score [%]": -4.67}
{"Variant": "G21M", "relative binding score [%]": 9.21}
{"Variant": "Q2D", "relative binding score [%]": 29}
{"Variant": "Q19R", "relative binding score [%]": 28}
{"Variant": "R123A", "relative binding score [%]": 55.2}
{"Variant": "A170D", "relative binding score [%]": 4.01}
{"Variant": "V100Q", "relative binding score [%]": 0.501}
{"Variant": "L82R", "relative binding score [%]": 9.8}
{"Variant": "T160A", "relative binding score [%]": 8.89}
